Measured values pooled from the literature.
± gives the spread as reported.
Target: Cytochrome P450 2D6 (CYP2D6, Homo sapiens, UniProt P10635)

| SMILES | assay | test system | conditions | quantity | result |
| --- | --- | --- | --- | --- | --- |
| CCN(CC)CCOc1ccc(-c2nnn(Cc3ccc(OC)cc3)c2N)cc1 | CYP phenotyping | – | concentration not given | inhibition | 1.1% |
| Cc1cc(-c2ccc3ccccc3c2)nnc1NCCN1CCN(C)CC1 | substrate | recombinant enzyme | 100 nM | half-life | > 60 min |
| CC(=O)c1cccc(-c2nc(Nc3ccccc3)nc(N3CCOCC3)n2)c1 | – | – | 10 µM | inhibition | 12% |
| C[C@@H](c1ccc2nccn2c1)n1nnc2ncc(-c3cn[nH]c3)nc21 | – | human liver microsomes | 10 and 50 µM, 30 min preincubation, added: ± NADPH | time-dependent inhibition | < 20% |
| N#Cc1cccc2c1C1(CCN(C(=O)c3cnc4[nH]ncc4c3)CC1)C(=O)N2CC(=O)NCC(F)(F)F | enzyme activity, inhibitor | – | – | IC50 | 40 µM |
| C[C@@H](c1ccc2nccn2c1)n1nnc2nc(O)c(-c3cnn(C)c3)nc21 | enzyme activity, inhibitor | human, liver microsomes | – | IC50 | > 50 µM |
| N#Cc1c(Cl)ccc2c1C1(CCN(C(=O)c3cnc4[nH]ncc4c3)CC1)C(=O)N2CC(=O)NCC(F)(F)F | enzyme activity, inhibitor | – | – | IC50 | 18 µM |
| CN[C@@H]1[C@H](O)[C@H](NC)[C@H]2O[C@]3(O)[C@H](O[C@@H]2[C@H]1O)O[C@H](C)C[C@H]3NC(=O)Cc1cc(Cl)ccn1 | – | – | 10 µM | inhibition | -1% |
| O=C(CN1C(=O)C2(CCN(C(=O)c3ccc4[nH]ncc4c3)CC2)c2ccccc21)NCC(F)(F)F | enzyme activity, inhibitor | – | – | IC50 | 10 µM |
| C[C@H](NCc1ccc(-c2ccc(C(F)(F)F)cc2)cc1)C(N)=O | P450-Glo luminescence | potassium phosphate buffer | 10 µM, pH 7.4, isoform 2D6 | inhibition | 89.3% |

A few entries again:
| SMILES | assay | test system | conditions | quantity | result |
| --- | --- | --- | --- | --- | --- |
| CN[C@@H]1[C@H](O)[C@H](NC)[C@H]2O[C@]3(O)[C@H](O[C@@H]2[C@H]1O)O[C@H](C)C[C@H]3NC(=O)Cc1cc(Cl)ccn1 | – | – | 10 µM | inhibition | -1% |
